# Assay results gathered from unrelated publications.
# Each numbered part is a random draw from the data of one study; scales do not carry over between parts.
# Sequence of UniProt Q00535 (whole entry, looked up): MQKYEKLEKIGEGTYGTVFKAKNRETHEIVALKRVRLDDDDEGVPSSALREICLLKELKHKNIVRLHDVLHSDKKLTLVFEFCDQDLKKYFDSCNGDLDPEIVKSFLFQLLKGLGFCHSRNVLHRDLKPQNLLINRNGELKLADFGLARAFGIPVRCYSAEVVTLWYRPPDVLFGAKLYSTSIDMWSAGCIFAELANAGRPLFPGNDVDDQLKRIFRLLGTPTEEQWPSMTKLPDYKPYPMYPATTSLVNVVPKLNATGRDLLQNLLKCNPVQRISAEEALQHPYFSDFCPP
# Sequence of UniProt Q8N5S9 (whole entry, looked up): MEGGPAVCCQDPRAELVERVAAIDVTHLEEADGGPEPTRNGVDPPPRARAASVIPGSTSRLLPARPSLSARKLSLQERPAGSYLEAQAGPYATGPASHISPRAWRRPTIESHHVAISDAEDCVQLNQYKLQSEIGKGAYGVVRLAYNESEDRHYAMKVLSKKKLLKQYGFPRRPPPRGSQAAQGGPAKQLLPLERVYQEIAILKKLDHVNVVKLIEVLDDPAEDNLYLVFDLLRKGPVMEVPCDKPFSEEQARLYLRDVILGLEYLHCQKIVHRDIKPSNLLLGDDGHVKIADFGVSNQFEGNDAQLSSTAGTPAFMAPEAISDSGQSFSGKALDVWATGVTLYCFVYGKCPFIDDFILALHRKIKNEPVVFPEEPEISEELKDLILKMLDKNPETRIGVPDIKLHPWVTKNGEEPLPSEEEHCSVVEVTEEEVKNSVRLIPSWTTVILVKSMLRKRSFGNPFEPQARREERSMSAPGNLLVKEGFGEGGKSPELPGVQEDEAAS
# Sequence of UniProt Q96SB4 (whole entry, looked up): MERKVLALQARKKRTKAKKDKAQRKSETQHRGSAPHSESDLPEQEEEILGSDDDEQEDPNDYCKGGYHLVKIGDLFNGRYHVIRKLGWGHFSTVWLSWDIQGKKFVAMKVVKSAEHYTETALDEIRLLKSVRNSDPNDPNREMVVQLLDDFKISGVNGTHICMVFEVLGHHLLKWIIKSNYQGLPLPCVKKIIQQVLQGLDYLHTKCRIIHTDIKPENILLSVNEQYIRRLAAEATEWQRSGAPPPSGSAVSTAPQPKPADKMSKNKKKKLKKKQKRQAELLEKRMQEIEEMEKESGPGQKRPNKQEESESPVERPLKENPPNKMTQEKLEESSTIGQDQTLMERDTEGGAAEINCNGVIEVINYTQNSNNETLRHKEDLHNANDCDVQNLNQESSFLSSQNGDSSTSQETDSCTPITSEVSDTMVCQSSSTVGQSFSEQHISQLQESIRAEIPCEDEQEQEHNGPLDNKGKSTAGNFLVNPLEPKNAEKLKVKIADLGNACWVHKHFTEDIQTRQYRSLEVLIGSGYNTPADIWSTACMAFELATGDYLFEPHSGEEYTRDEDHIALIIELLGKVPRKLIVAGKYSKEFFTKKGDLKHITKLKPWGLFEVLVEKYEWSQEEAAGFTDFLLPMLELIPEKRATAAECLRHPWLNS
# Sequence of UniProt P49759 (whole entry, looked up): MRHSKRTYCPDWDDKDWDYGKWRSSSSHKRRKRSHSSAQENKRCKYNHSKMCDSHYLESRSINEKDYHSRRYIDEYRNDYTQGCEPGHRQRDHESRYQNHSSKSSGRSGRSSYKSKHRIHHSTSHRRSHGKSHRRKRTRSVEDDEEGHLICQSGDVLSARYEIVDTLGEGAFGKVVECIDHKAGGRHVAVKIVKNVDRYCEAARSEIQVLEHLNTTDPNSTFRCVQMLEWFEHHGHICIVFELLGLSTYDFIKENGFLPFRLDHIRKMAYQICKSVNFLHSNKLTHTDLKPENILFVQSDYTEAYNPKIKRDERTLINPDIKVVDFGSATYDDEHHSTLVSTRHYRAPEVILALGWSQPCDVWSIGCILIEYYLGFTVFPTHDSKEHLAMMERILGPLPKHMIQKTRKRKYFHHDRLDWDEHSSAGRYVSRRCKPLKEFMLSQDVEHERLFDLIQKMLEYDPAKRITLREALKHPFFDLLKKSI
# Sequence of UniProt P17948 (whole entry, looked up): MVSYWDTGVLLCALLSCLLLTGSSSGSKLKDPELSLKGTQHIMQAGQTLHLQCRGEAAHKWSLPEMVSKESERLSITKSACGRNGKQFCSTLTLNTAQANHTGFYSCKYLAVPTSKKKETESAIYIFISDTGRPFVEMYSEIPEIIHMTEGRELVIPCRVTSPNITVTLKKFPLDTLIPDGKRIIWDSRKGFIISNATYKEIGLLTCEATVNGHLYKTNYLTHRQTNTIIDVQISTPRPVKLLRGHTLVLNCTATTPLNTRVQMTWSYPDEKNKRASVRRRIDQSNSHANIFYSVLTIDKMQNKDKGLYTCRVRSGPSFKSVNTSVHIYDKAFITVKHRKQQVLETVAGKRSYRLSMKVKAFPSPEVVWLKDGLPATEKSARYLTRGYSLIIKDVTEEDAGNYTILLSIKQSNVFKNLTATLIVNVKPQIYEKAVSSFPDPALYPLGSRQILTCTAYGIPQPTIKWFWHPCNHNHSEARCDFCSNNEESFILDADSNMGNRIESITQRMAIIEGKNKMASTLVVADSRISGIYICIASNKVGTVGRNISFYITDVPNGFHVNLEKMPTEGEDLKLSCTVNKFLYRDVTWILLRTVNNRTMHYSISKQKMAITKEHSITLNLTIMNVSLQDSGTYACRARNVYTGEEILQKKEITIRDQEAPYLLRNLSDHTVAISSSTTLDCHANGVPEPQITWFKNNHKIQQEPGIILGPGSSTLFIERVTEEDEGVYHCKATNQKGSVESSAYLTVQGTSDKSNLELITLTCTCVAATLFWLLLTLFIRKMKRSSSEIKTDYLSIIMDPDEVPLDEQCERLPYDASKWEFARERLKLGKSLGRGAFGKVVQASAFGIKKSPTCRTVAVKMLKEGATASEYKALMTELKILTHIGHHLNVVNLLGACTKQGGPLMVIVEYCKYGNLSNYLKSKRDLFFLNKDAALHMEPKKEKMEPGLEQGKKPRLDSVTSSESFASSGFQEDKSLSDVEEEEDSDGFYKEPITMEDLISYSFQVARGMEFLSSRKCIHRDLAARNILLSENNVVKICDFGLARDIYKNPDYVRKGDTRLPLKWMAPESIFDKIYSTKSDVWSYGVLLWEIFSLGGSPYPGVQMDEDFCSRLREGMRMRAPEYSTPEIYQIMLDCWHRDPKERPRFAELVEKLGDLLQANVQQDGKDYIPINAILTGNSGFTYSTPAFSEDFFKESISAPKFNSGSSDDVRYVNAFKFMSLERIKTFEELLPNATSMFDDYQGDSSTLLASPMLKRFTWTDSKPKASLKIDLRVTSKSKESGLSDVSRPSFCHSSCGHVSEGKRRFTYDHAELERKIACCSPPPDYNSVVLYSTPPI
# Sequence of UniProt P51812 (whole entry, looked up): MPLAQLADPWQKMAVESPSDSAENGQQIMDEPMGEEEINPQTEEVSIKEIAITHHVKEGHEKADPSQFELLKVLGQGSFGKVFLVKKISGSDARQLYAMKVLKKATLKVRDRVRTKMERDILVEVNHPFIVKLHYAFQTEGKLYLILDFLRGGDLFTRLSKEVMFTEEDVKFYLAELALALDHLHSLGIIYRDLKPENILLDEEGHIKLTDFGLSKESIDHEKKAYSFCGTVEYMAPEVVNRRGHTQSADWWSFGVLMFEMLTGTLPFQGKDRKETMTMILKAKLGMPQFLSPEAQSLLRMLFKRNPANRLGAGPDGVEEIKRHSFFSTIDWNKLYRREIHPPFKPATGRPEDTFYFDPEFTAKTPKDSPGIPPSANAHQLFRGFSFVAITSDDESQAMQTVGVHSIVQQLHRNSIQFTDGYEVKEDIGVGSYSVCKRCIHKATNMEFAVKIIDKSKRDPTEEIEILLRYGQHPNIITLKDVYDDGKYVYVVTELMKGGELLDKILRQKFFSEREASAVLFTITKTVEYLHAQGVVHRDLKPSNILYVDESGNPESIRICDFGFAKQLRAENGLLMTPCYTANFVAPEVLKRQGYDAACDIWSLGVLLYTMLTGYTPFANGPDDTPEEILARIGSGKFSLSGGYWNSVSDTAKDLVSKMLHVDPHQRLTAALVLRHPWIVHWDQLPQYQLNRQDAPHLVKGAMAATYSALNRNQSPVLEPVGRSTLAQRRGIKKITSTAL
# Sequence of UniProt Q13153 (whole entry, looked up): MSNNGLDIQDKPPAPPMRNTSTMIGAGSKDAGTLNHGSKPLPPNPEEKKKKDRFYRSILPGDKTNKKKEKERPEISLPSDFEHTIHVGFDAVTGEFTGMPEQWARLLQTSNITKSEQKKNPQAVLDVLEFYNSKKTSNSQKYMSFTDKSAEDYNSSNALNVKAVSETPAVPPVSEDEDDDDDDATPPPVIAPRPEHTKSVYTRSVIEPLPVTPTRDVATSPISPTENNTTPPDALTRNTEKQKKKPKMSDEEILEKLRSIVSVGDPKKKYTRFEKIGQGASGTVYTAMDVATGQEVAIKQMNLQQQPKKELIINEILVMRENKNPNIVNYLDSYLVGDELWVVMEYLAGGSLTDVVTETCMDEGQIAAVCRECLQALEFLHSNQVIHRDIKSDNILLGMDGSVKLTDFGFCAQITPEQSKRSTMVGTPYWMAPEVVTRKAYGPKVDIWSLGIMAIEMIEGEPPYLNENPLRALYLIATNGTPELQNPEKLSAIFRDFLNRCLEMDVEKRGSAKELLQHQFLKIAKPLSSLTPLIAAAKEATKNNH
# Sequence of UniProt Q9UBS0 (whole entry, looked up): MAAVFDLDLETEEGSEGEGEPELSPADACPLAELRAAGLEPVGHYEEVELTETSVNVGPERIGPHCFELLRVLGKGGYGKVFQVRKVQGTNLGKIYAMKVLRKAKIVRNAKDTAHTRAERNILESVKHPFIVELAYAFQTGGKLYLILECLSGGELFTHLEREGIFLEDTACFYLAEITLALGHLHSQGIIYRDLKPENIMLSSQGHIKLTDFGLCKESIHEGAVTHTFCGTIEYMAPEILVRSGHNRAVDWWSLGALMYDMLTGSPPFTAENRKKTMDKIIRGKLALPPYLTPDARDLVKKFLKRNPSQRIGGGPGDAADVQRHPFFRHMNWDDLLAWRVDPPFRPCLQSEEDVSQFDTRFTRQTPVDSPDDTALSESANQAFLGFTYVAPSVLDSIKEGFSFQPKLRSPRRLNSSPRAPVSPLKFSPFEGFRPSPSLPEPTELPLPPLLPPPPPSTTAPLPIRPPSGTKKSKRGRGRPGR

# Sample 1 — cell line: normal-adjacent organoid sample E; technique: CellTiter-Glo; concentration: 0.1 µM; setting: replicate mean; reference: DMSO
Compound,viability [%]
COc1cccc(CNC(=O)c2nc3scc(COCc4ccc(C(=O)O)cc4)c3c(=O)[nH]2)c1,118
O[C@]1(C(F)(F)F)CCCC[C@H]1Nc1ccc(F)cc1,94.6
O=C(NCCCC1CCCCC1)c1ccc(CNC(=O)c2cnn(-c3ccccc3)c2C(F)(F)F)cc1,114
O=C(Nc1ccc(Oc2ccc(F)cc2)cc1)N1CCc2ncccc2[C@H]1c1ccc(F)cc1,134
Nc1cnc(N2CCc3cc(S(=O)(=O)Nc4c(F)cc(Cl)cc4F)cc(N4CCCC4=O)c32)nc1,113
CCCOc1ccc([C@@H]2[C@@H](C(=O)O)[C@H](c3ccc4c(c3)OCO4)CN2CC(=O)Nc2c(CC)cccc2CC)cc1,111
COc1ccc2cc(OCC3(C(=O)O)CN(C(=O)c4ccc(F)cc4)C3)ccc2c1,113

# Sample 2 — technique: protein-binding microarray; form: hairpin DNA; matrix: in vitro; concentration: not given; reference: not given; reading: higher = stronger binding
# Target: Runt-related transcription factor 1, full length (RUNX1, Homo sapiens, UniProt Q01196-8, residues 1-480)
# Setting: whole hairpin DNA, median over replicate spots
Sequence,median fluorescence
GAGGCCTGTTCCGGTTGGCCTCCTGGCCAACCGGAACAGGCCTCACACTC,1630 a.u.
GAGGCCCGTTGTGGTTGGCCTCCTGGCCAACCACAACGGGCCTCACACTC (5mC at 7 37),3090 a.u.
CTCAGTTCTGTCGGCTGGACTCCTGTCCAGCCGACAGAACTGAGACACTC (5mC at 12 32),1700 a.u.
GAGGCCTGTCGCGGCTGGCCTCCTGGCCAGCCGCGACAGGCCTCACACTC (5mC at 15),1870 a.u.
GAGGCCTGTTGAGGTTGGCCTCCTGGCCAACCTCAACAGGCCTCACACTC,1950 a.u.
GAGGCCTGTCGCGGTTGGCCTCCTGGCCAACCGCGACAGGCCTCACACTC (5mC at 41),2700 a.u.
GAGGCCTGTCGCGGTTGGCCTCCTGGCCAACCGCGACAGGCCTCACACTC (5mC at 12),2130 a.u.
CTCAGTTCTGTGGGCTGGACTCCTGTCCAGCCCACAGAACTGAGACACTC,1940 a.u.

# Sample 3 — technique: aptamer microarray, sandwich; form: DNA with 2'F-ANA; matrix: in vitro; concentration: 200 nM; with: Cy3 exosite-II aptamer, 400 nM; reading: higher = stronger binding; sequence: GGTTGGTGTGGTTGG
# Target: Prothrombin, mature alpha-thrombin (F2, Homo sapiens, UniProt P00734)
# Setting: whole 15-mer aptamer, many near background
Modification,mean fluorescence intensity [a.u.]
2'F-ANA at 1 2 4 7 9 11 13 14 15,56.1
2'F-ANA at 3 6 9 12,1260
2'F-ANA at 5 6 10 11 15,52.1
2'F-ANA at 1 7 8 9 10 14,44.7
2'F-ANA at 2 7 9 10 12 13 14,96.9
2'F-ANA at 2 3 4 5 6 8 13 14,49.2
2'F-ANA at 1 2 4 5 6 7 9 11 12 13 14,49.5
2'F-ANA at 1 3 6 8 10 11 13 14,60

# Sample 4 — Compound: O=c1cc(N2CCOCC2)oc2c1ccc1ccccc12; read-out: enzyme activity; action: inhibitor; concentration: 0.5 µM; reference: control
target,remaining activity [%]
"PIM1 (Homo sapiens, UniProt P11309)",54.8
"PAK6 (Homo sapiens, UniProt Q9NQU5)",92
"ERBB2 (Homo sapiens, UniProt P04626)",105
"PRKCQ (Homo sapiens, UniProt Q04759)",90.6
"SRPK1 (Homo sapiens, UniProt Q96SB4)",90.9
"PAK1 (Homo sapiens, UniProt Q13153)",93.5
"RPS6KA3 (Homo sapiens, UniProt P51812)",104
"Cyclin-dependent kinase 5, with p35 (CDK5, Homo sapiens, UniProt Q00535)",96.7
"PRKCZ (Homo sapiens, UniProt Q05513)",106
"JAK1 (Homo sapiens, UniProt P23458)",104
"MUSK (Homo sapiens, UniProt O15146)",75.6
"PAK5 (Homo sapiens, UniProt Q9P286)",108
"RPS6KB2 (Homo sapiens, UniProt Q9UBS0)",99.6
"FLT1 (Homo sapiens, UniProt P17948)",95.5
"CLK1 (Homo sapiens, UniProt P49759)",98.3
"CAMKK1 (Homo sapiens, UniProt Q8N5S9)",112
"MAP3K20 (Homo sapiens, UniProt Q9NYL2)",98
"MELK (Homo sapiens, UniProt Q14680)",103

# Further values, each from its own experiment
SMILES,matrix,endpoint,value
CCOC(=O)[C@@H]1CSCC(=O)N[C@@H](CC)C(=O)N(C)[C@@H](C)C(=O)N[C@H](CC(C)C)C(=O)N2CCC[C@H]2C(=O)N(CC(C)C)CC(=O)N[C@H](CC(C)C)C(=O)N(C)[C@H](C)C(=O)N[C@@H](CC(C)C)C(=O)N1C,hydrocarbon/water,logD,2.13

# Excerpt of the above (sample 4):
target,remaining activity [%]
"FLT1 (Homo sapiens, UniProt P17948)",95.5
"SRPK1 (Homo sapiens, UniProt Q96SB4)",90.9
"MELK (Homo sapiens, UniProt Q14680)",103
"PAK1 (Homo sapiens, UniProt Q13153)",93.5
